Measurements pooled from the literature.
Each line is one published result; not all experiments were run side by side. ± gives the spread as reported.

With `O=C(O)c1ccc(/C=C2\SC(=S)N(Cc3cccc(C(F)(F)F)c3)C2=O)cc1` the survival was 30 to 48 days (Nlrp3 A350V x LysM-Cre mouse; oral, 20 mg/kg daily, from day 4, stopped day 25; up to).
For `CC[C@H](C)[C@H](NC(=O)[C@H](CCCNC(=N)N)NC(=O)[C@H](CCC(N)=O)NC(=O)[C@H](CC(=O)O)NC(=O)[C@H](CC(C)C)NC(=O)[C@H](CC(C)C)NC(=O)[C@H](CC(N)=O)NC(=O)[C@H](Cc1ccccc1)NC(=O)[C@H](CC(=O)O)NC(=O)[C@@H](NC(=O)[C@@H](NC(=O)[C@H](CC(N)=O)NC(=O)CNC(=O)[C@H](CO)NC(C)=O)C(C)C)[C@@H](C)CC)C(=O)N[C@H](C(=O)N[C@@H](Cc1c[nH]c2ccccc12)C(=O)N[C@@H](CCC(N)=O)C(=O)N[C@@H](CC(N)=O)C(=O)N[C@@H](Cc1c[nH]c2ccccc12)C(=O)N[C@@H](Cc1ccc(O)cc1)C(=O)N[C@@H](C)C(N)=O)[C@@H](C)CC`, “α4β7+ CCR9− cells” read 30.8% (refers to: HA-19 tetramer; antigen-experienced tetramer+ CD4 T cells, healthy adults, HLA-DRB1*0101; dose not given).
`Cc1cc2c(C(=O)Cc3ccccc3)c(O)c(O)cc2c(O)c1-c1c(C)cc2c(C(=O)Cc3ccccc3)c(O)c(O)cc2c1O` — result for “spleen weight reduction”: 80% (B6 Bcl-2 transgenic mouse; 60 µmol/kg; reference: maximal spleen shrinkage).
`O=C(O)CCCC(=O)O` has an inhibition of 64.2 ± 0.94% (DPPH radical scavenging; 250 µg/mL).
For `Cc1cc(Nc2nc(C[C@@]3(C(=O)O)CCN(Cc4cccc(Cl)c4F)[C@H](C)C3)cc(C)c2F)[nH]n1`, “tumour growth inhibition” read 99% (mice, NCI-H69 xenograft; oral, 20 mg/kg once daily).
Under mRNA level, `CCCCCCCCCCCCCCCC(=O)N[C@@H](CCC(=O)NCCOCCOCCC(=O)NCCOCCOCCC(=O)NCCCC[C@H](NC(=O)[C@H](CC(=O)O)NC(=O)[C@H](CC(C)C)NC(=O)[C@H](Cc1ccc(O)cc1)NC(=O)[C@H](CCCCN)NC(=O)[C@H](CO)NC(=O)[C@H](Cc1ccc(O)cc1)NC(=O)[C@H](CC(=O)O)NC(=O)[C@H](CO)NC(=O)[C@@H](NC(=O)[C@H](Cc1ccccc1)NC(=O)[C@@H](NC(=O)CNC(=O)[C@H](CCC(N)=O)NC(=O)[C@@H](CO)NC(=O)[C@@H](N)Cc1c[nH]cn1)[C@@H](C)O)[C@@H](C)O)C(=O)N[C@@H](CCCNC(=N)N)C(=O)N[C@@H](CCCNC(=N)N)C(=O)N[C@@H](C)C(=O)N[C@@H](CCC(N)=O)C(=O)N[C@@H](CC(=O)O)C(=O)N[C@@H](Cc1ccccc1)C(=O)N[C@H](C(=O)N[C@@H](CCC(N)=O)C(=O)N[C@@H](Cc1c[nH]c2ccccc12)C(=O)N[C@@H](CC(C)C)C(=O)N[C@@H](CC(C)C)C(=O)N[C@@H](CC(N)=O)C(=O)N[C@H](C(=O)NCC(=O)NCC(=O)N1CCC[C@H]1C(=O)N[C@@H](CO)C(=O)N[C@@H](CO)C(=O)NCC(=O)N[C@@H](C)C(=O)N1CCC[C@H]1C(=O)N1CCC[C@H]1C(=O)N1CCC[C@H]1C(=O)N[C@@H](CO)C(N)=O)[C@@H](C)O)C(C)C)C(=O)O` is recorded as “decreased” (qPCR, refers to: Pdgf, Timp1; Sprague-Dawley rat CCl4 model, liver; dose not given).
`N=C(N)NCCC[C@H](NC(=O)[C@@H]1CCCN1C(=O)[C@@H]1CSSC[C@H](N)C(=O)N[C@@H](Cc2ccc(O)cc2)C(=O)N[C@@H](Cc2ccccc2)C(=O)N[C@@H](CCC(N)=O)C(=O)N[C@@H](CC(N)=O)C(=O)N1)C(=O)NCC(N)=O` — result for “peak mean arterial pressure change”: roughly 35 mmHg (male Sprague-Dawley rat, conscious; intra-arterial, 100 ng/kg; reference: pre-injection baseline).
`CC(C)C[C@@H]1NC(=O)[C@H](C(C)C)NC(=O)[C@H](CO)NC(=O)CNC(=O)CNC(=O)[C@H](CCCNC(=N)N)NC(=O)[C@@H]2CCCN2C(=O)[C@@H](NC(=O)CC[C@H](NC(=O)c2ccc(N(C)Cc3cnc4nc(N)nc(N)c4n3)cc2)C(=O)O)C(C)(C)SSC[C@@H](C(=O)O)NC(=O)CNC(=O)[C@H]([C@@H](C)O)NC(=O)[C@H](C(C)C)NC1=O` — result for “paw weight reduction”: 7 to 11% (rat adjuvant arthritis; 0.5 to 1.0 mg/kg; reference: vehicle).
For `CC[C@H](C)[C@H](N)C(=O)N[C@@H](CO)C(=O)N[C@@H](Cc1ccc(O)cc1)C(=O)NCC(=O)NCC(=O)N[C@@H](C)C(=O)N[C@@H](CC(=O)O)C(=O)N[C@@H](Cc1ccc(O)cc1)C(=O)N[C@@H](CCCCN)C(=O)O`, the ED50 was 3.38 nmol (acetic acid writhing; wild-type mice; intrathecal, 20 min, added: acetic acid 1% i.p.).
`CSCC[C@H](NC(=O)CNC(=O)[C@H](CC(=O)O)NC(=O)[C@@H](NC(=O)[C@@H](NC(=O)[C@@H](NC(=O)CNC(=O)[C@H](CCC(N)=O)NC(=O)[C@H](CCSC)NC(=O)[C@H](CC(=O)O)NC(=O)[C@H](C)NC(=O)[C@H](C)NC(=O)[C@@H](NC(=O)[C@H](CO)NC(=O)[C@@H](N)CC(C)C)[C@@H](C)O)C(C)C)C(C)C)[C@@H](C)O)C(=O)N[C@@H](C)C(=O)N[C@@H](CO)C(=O)NCC(=O)N[C@@H](CC(C)C)C(=O)N[C@@H](CC(=O)O)C(=O)N[C@@H](CCCCN)C(=O)N[C@@H](CC(=O)O)C(=O)N[C@@H](Cc1ccc(O)cc1)C(=O)N[C@@H](CC(C)C)C(=O)N[C@@H](CCCCN)C(=O)N1CCC[C@H]1C(=O)N[C@@H](CC(=O)O)C(=O)N[C@@H](CC(=O)O)C(=O)O` — result for “partial response duration”: 44 to 125 weeks (p53-positive advanced solid tumour patients; dose not given, three patients).
`N=C(N)NCCC[C@@H]1NC(=O)[C@H](CCCCN)NC(=O)[C@@H](Cc2ccccc2)NC(=O)[C@H](CC(=O)O)NC(=O)CNC1=O`: “lung metastasis reduction” roughly 30% (B16-F10, C57BL/6 mouse; intravenous (co-injected with cells), 2.4 µmol, 14 d; reference: cells only).
`CC[C@H](C)[C@H](NC(=O)[C@H](Cc1c[nH]c2ccccc12)NC(=O)[C@H](CCCNC(=N)N)NC(=O)[C@H](CCCCN)NC(=O)[C@H](CC(C)C)NC(=O)[C@H](CC(=O)O)NC(=O)[C@H](Cc1ccccc1)NC(=O)[C@H](C)NC(=O)[C@H](Cc1ccc(O)cc1)NC(=O)[C@H](CC(N)=O)NC(=O)[C@H](Cc1ccc(O)cc1)NC(=O)[C@H](CCCNC(=N)N)NC(=O)[C@H](Cc1ccc(O)cc1)NC(=O)[C@H](Cc1ccc(O)cc1)NC(=O)[C@@H](NC(=O)[C@H](CC(C)C)NC(=O)[C@H](C)NC(=O)[C@H](CC(N)=O)NC(=O)[C@H](Cc1ccc(O)cc1)NC(C)=O)[C@@H](C)CC)C(=O)N[C@@H](Cc1ccc(O)cc1)C(=O)N[C@@H](CC(C)C)C(N)=O` — result for “α4β7+ CCR9− cells”: 35.7% (refers to: HA-52 tetramer; antigen-experienced tetramer+ CD4 T cells, healthy adults, HLA-DRB1*0101; dose not given).
`Cc1ccc(/C=C/C(=O)O)cc1-c1cc2c(cc1C)C(C)(C)CCC2(C)C` — result for “log2 fold change”: -0.31 (RNA sequencing, refers to: Angptl4 mRNA; rat, brain; dose not given, 24 h, single dose; reference: vehicle).
Under tubular necrosis, `COc1nc(CC=C(C)CC=CC(C)=CC(C)C(OC2OC(CO)C(O)C(O)C2O)C(C)=CCO)c(C)c(O)c1OC` (stereo not shown) is recorded as “decreased” (H&E staining; mouse, ischaemia-reperfusion AKI; dose not given).
For `CC(C)C[C@@H]1NC(=O)[C@@H](Cc2c[nH]c3ccccc23)NC(=O)[C@H](CCCNC(=N)N)NC(=O)[C@@H](CCC(=O)O)NC(=O)[C@H](CCC(N)=O)NC(=O)[C@@H](CCC(=O)O)NC(=O)[C@H](CCCNC(=N)N)NC(=O)[C@@H](Cc2c[nH]c3ccccc23)NC1=O`, “total cholesterol reduction” read 36% (LDLr-/- mouse, western diet, plasma; oral, drinking water, 35 mg/kg/day, 2 weeks; reference: untreated western diet group).
For `CC[C@H](C)[C@H](NC(=O)[C@H](Cc1c[nH]c2ccccc12)NC(=O)[C@H](CCCCN)NC(=O)[C@@H](NC(=O)[C@H](CC(C)C)NC(=O)[C@H](CC(=O)O)NC(=O)CNC(=O)[C@@H](NC(=O)[C@@H](NC(=O)[C@H](CO)NC(=O)[C@@H](NC(=O)[C@@H](NC(=O)[C@H](CC(=O)O)NC(=O)[C@H](CCC(N)=O)NC(=O)[C@H](C)NC(=O)[C@H](CCSC)NC=O)[C@@H](C)CC)[C@@H](C)CC)[C@@H](C)O)[C@@H](C)CC)C(C)C)C(=O)N[C@H](C(=O)N[C@@H](CC(=O)O)C(=O)N[C@H](C(=O)N[C@H](C(=O)N[C@@H](CC(N)=O)C(=O)N[C@@H](CCCCN)C(=O)N[C@@H](Cc1ccccc1)C(=O)N[C@H](C(=O)N[C@@H](CCCCN)C(=O)N[C@@H](CCCCN)C(=O)O)[C@@H](C)O)C(C)C)[C@@H](C)O)[C@@H](C)CC`, the time constant was 2.2 s (carboxyfluorescein release, stopped-flow fluorescence; POPC vesicles 50 µM; up to 1 µM, pH 7.5, peptide/lipid 1:50).
For `CCOP(=O)(OCC)OCCCCOC(=O)CC1=C(C)C(=Cc2ccc([S+](C)[O-])cc2)c2ccc(F)cc21` (stereo not shown), “decrease in phosphorylation” read 55% (refers to: phospho-MEK; nude mice, orthotopic A549 tumour, tumour; inhalation, dose not given; reference: vehicle).
`COc1ccc([N+](=O)[O-])cc1NC(=O)CCC(=O)[O][Zn][O]C(=O)CCC(=O)Nc1cc([N+](=O)[O-])ccc1OC.c1ccncc1` has an inhibition of 63.8% (DPPH scavenging, absorbance; 31.25 µg/mL).
`C#CC[C@H](NC(=O)CNC(=O)[C@H](CO)NC(=O)[C@@H]1CCCCNC(=O)CCCC(=O)N[C@@H](CCSC)C(=O)N[C@@H](Cc2c[nH]c3ccccc23)C(=O)N2CCC[C@H]2C(=O)N[C@@H](Cc2c[nH]cn2)C(=O)N[C@@H](CCCNC(=N)N)C(=O)N[C@@H](C(C)C)C(=O)N[C@@H]([C@@H](C)O)C(=O)N[C@@H](C)C(=O)N(C)[C@@H](C)C(=O)N1)C(=O)O` — result for “total tumour mass”: “no effect” (athymic nude mouse, OVCAR-8 intraperitoneal; intraperitoneal, 10 mg/kg 3 times weekly, 3 weeks; reference: untreated).
The inhibition of `O=c1c(O)c(-c2cc(O)ccc2O)oc2cc(O)cc(O)c12` is reported as 87.4 ± 1.2% (DPPH radical scavenging; 1000 µg/mL).
`CC[C@H](C)[C@H](NC(=O)[C@@H](NC(=O)[C@H](CC(=O)O)NC(C)=O)[C@@H](C)O)C(=O)N[C@@H](CCCNC(=N)N)C(=O)N[C@@H](CC(C)C)C(=O)N[C@@H](CC(C)C)C(=O)N[C@@H](Cc1ccccc1)C(=O)N[C@@H](CCC(N)=O)C(=O)N[C@@H](CC(C)C)C(=O)N[C@@H](CCSC)C(=O)N[C@@H](CCCNC(=N)N)C(=O)N1CCC[C@H]1C(=O)N1CCC[C@H]1C(=O)N[C@@H](CC(N)=O)C(=O)N[C@@H](CCSC)C(=O)N[C@H](C(=O)N1CCC[C@H]1C(=O)N[C@@H](C)C(=O)N[C@H](C(=O)N[C@@H](CC(N)=O)C(=O)N[C@@H](C)C(N)=O)C(C)C)[C@@H](C)O`: “α4β7+ CCR9− cells” 28% (refers to: HA-19 tetramer; antigen-experienced tetramer+ CD4 T cells, healthy adults, HLA-DRB1*0101; dose not given).
`CCN(Cc1ccccc1)C(=O)CCc1nc(CN2CCN(C(=O)Cc3ccc(OC)c(OC)c3)CC2)no1` — result for “action potential number”: 0.3 ± 0.17 (current clamp; L4-L6 DRG neurons, rat CCI model; 3 µM, added: 500 pA current injection).

Some of these lines once more:
For `CC(C)C[C@@H]1NC(=O)[C@@H](Cc2c[nH]c3ccccc23)NC(=O)[C@H](CCCNC(=N)N)NC(=O)[C@@H](CCC(=O)O)NC(=O)[C@H](CCC(N)=O)NC(=O)[C@@H](CCC(=O)O)NC(=O)[C@H](CCCNC(=N)N)NC(=O)[C@@H](Cc2c[nH]c3ccccc23)NC1=O`, “total cholesterol reduction” read 36% (LDLr-/- mouse, western diet, plasma; oral, drinking water, 35 mg/kg/day, 2 weeks; reference: untreated western diet group).
